Experimental data of several laboratories.
± gives the spread as reported.
Fibroin-modulator-binding protein-1: Fibroin-modulator-binding protein-1 99-193 (Bombyx mori, UniProt Q5FBS0)
SPT15/TOA1/TOA2/SUA7 1-240; 1-286; 1-122; 1-345: SPT15/TOA1/TOA2/SUA7 1-240; 1-286; 1-122; 1-345 (Saccharomyces cerevisiae)
UniProt P46063, sequence (whole entry, looked up): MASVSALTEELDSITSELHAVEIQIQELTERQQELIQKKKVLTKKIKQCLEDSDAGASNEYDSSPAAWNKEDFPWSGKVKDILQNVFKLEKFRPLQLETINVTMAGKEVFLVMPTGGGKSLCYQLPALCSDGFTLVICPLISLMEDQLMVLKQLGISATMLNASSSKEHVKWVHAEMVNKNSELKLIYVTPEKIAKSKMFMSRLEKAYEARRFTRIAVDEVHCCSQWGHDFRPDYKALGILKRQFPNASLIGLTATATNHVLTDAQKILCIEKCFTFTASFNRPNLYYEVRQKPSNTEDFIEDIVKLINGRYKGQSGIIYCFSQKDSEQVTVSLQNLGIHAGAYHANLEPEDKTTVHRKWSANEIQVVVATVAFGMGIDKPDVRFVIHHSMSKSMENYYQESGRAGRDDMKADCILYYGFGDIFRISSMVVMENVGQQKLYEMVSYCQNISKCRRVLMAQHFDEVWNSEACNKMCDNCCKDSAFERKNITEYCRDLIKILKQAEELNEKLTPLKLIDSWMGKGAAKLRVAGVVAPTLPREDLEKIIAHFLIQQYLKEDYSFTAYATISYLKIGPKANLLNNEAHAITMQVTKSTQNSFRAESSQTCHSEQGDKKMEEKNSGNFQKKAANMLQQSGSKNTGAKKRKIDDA
UniProt P27695, sequence (whole entry, unmodified, looked up): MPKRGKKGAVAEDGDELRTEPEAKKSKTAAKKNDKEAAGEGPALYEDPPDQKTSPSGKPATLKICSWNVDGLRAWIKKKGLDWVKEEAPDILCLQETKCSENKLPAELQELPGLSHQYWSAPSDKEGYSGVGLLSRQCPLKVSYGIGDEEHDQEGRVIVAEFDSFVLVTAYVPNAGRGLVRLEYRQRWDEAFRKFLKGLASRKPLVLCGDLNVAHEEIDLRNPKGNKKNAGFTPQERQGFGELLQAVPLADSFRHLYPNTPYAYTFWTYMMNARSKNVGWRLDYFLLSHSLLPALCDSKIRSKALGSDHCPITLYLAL

With `AAGCAAGCAAGC (dsDNA)` the Kd was 7010 nM (Fibroin-modulator-binding protein-1; ITC; double-stranded DNA, one strand shown).
For `DNA 1 CACTGGCCGTCTTACGGTCGCTCTGCTCGACG / DNA 2 CGACCGTAAGACGGCCAGTG (dsDNA; 20 bp, 3' 12 nt overhang)`, the Kd was 31 ± 6.54 nM (RECQL 63-592 (Homo sapiens, UniProt P46063); fluorescence anisotropy; double-stranded DNA; with: Mg2+ 3 mM).
`colistin` gave an MIC of 1 µg/mL (Pseudomonas aeruginosa; broth microdilution; clinical isolate RKI-No_496/15).
The Kd of `AGTGAGTGAGTG (dsDNA)` is reported as 6510 nM (Fibroin-modulator-binding protein-1; ITC; double-stranded DNA, one strand shown).
With `GGGAGAACUUCGACCAGAAGUCACACCCUCUAACGCACAUUACGCUAAACCCUCUCAGCCUAUGUGCGCAUACAUGGAUCCUC (ssRNA; 2'-fluoro pyrimidines)` the relative binding was 73.5 RU (integrin alphaV/beta3 31-992/27-718 (Homo sapiens); SPR; RNA; with: MnCl2 1 mM; higher = more binding).
`GACGGACGGACG (dsDNA)` gave a Kd of 2620 ± 259 nM (Fibroin-modulator-binding protein-1; ITC; double-stranded DNA, one strand shown).
The Kd of `CTCAGGAATTCCTATAACGTAATGTGGAGCTCAGTTCAAGTCAATCGGTCC (dsDNA; 5'-amino-C6 primer)` is reported as 1.86 ± 0.35 nM (SPT15/TOA1/TOA2/SUA7 1-240; 1-286; 1-122; 1-345; array; double-stranded DNA, one strand shown; TBP:TFIIA:TFIIB ternary complex).
`GGGAGAACUUCGACCAGAAGUUAUCACCCCUGCACAUUACGCAAAAGUAUUAUCCCUGCCUAUGUGCGCAUACAUGGAUCCUC (ssRNA; 2'-fluoro pyrimidines)` has a relative binding of 57.2 RU (integrin alphaV/beta3 31-992/27-718 (Homo sapiens); SPR; RNA; with: MnCl2 1 mM; higher = more binding).
For `DNA 1 TGGGTGGGTAGGGTGGGTAGGGGAGGAT / DNA 2 ATCCTCCCCTA (DNA; intramolecular parallel G4, 5' overhang, 11-bp duplex)`, the Kd was 4.9 ± 1 nM (REV1 330-833 S485L (Homo sapiens, UniProt Q9UBZ9); FP; folded DNA; KCl 100 mM).
`ACCGACCGACCG (dsDNA)` gave a Kd of 5020 ± 901 nM (Fibroin-modulator-binding protein-1; ITC; double-stranded DNA, one strand shown).
`GGGAGAACUUCGACCAGAAGUCUAGACACUACGCGAAAAGAACCCACGCCUGUGUCUACGUAUGUGCGCAUACAUGGAUCCUC (ssRNA; 2'-fluoro pyrimidines)` gave a relative binding of 65.4 RU (integrin alphaV/beta3 31-992/27-718 (Homo sapiens); SPR; RNA; with: MnCl2 1 mM; higher = more binding).
For `CAGACAGACAGA (dsDNA)`, the Kd was 6610 nM (Fibroin-modulator-binding protein-1; ITC; double-stranded DNA, one strand shown).
With `GGGAGAACUUCGACCAGAAGGACAUCUACGCAAAAGUGUUCCCCUGCCUGAUGUGACAAAUAUGUGCGCAUACAUGGAUCCUC (ssRNA; 2'-fluoro pyrimidines)` the relative binding was 83.2 RU (integrin alphaV/beta3 31-992/27-718 (Homo sapiens); SPR; RNA; with: MnCl2 1 mM; higher = more binding).
For `11-deoxycorticosterone`, the rate constant was 43.9 ± 1.72 min⁻¹ (stopped-flow global kinetic fitting; 4-state closed model (best), 40-fold adrenodoxin excess, with: substrate binding k-2).
With `GGGAGAACUUCGACCAGAAGUUUCCUAGUCCAUUUUGGCGCACGCGAAUACGGGAGACACUAUGUGCGCAUACAUGGAUCCUC (ssRNA; 2'-fluoro pyrimidines)` the relative binding was 114 RU (integrin alphaV/beta3 31-992/27-718 (Homo sapiens); SPR; RNA; with: MnCl2 1 mM; higher = more binding).
`Peginesatide` has a phosphorylation level of 58 fold (UT7/EPO; tyrosine phosphorylation, LC-MS/MS phosphoproteomics, GluC, measured: CD2AP tyrosine 361; 10 nM, 15 min, with: 10 U/mL EPO; reference: vehicle).
The Kd of `ATGACTGAATTCAAGGCCGGTTCTGCTAAGAAAGGTCAAGTCAATCGGTCC (dsDNA; 5'-amino-C6 primer)` is reported as 1.12 ± 0.12 nM (SPT15/TOA1/TOA2/SUA7 1-240; 1-286; 1-122; 1-345; array; double-stranded DNA, one strand shown; TBP:TFIIA:TFIIB ternary complex).
`PMESGICTIV` — result for “normalised SPR binding response”: 0 normalised RU (human MAGI1-2/6 PDZ construct (MBP fusion); surface plasmon resonance; peptide; concentration not given; higher = stronger binding).
With `DNA 1 GATCGATCGATCGATCGATCGATCGATCGATCGATTCAATTCAATCGGTCC / DNA 2 GGACCGATTGACTTGAATCGATCGATCGATCGATCGATCGATCGATCGATC (dsDNA; 5'-amino-C6 primer)` the Kd was 2.6 ± 0.37 nM (SPT15/TOA1/TOA2/SUA7 1-240; 1-286; 1-122; 1-345; array; double-stranded DNA; TBP:TFIIA:TFIIB ternary complex).
`GSGAGKETRV` — result for “normalised SPR binding response”: 65.4 normalised RU (human MAGI1-3/6 PDZ construct (MBP fusion); surface plasmon resonance; peptide; concentration not given; higher = stronger binding).
`RNA 1 CCGGGCGGGCGGGAGGGAC / RNA 2 GGCCUCCGGCCCCCCCG (dsRNA (Homo sapiens); duplex with bulges)` has a K1/2 of 780 ± 110 nM (APE1 34-318 del1-33 (Homo sapiens, UniProt P27695); fluorescence titration; double-stranded RNA; without Mg2+, with: none).

Repeated from above:
`Peginesatide` has a phosphorylation level of 58 fold (UT7/EPO; tyrosine phosphorylation, LC-MS/MS phosphoproteomics, GluC, measured: CD2AP tyrosine 361; 10 nM, 15 min, with: 10 U/mL EPO; reference: vehicle).
The Kd of `ATGACTGAATTCAAGGCCGGTTCTGCTAAGAAAGGTCAAGTCAATCGGTCC (dsDNA; 5'-amino-C6 primer)` is reported as 1.12 ± 0.12 nM (SPT15/TOA1/TOA2/SUA7 1-240; 1-286; 1-122; 1-345; array; double-stranded DNA, one strand shown; TBP:TFIIA:TFIIB ternary complex).
